Literature values as cited in several papers.
Each numbered part shows a few of the values that one paper quotes.
Sequence of UniProt Q16832 (whole entry, looked up): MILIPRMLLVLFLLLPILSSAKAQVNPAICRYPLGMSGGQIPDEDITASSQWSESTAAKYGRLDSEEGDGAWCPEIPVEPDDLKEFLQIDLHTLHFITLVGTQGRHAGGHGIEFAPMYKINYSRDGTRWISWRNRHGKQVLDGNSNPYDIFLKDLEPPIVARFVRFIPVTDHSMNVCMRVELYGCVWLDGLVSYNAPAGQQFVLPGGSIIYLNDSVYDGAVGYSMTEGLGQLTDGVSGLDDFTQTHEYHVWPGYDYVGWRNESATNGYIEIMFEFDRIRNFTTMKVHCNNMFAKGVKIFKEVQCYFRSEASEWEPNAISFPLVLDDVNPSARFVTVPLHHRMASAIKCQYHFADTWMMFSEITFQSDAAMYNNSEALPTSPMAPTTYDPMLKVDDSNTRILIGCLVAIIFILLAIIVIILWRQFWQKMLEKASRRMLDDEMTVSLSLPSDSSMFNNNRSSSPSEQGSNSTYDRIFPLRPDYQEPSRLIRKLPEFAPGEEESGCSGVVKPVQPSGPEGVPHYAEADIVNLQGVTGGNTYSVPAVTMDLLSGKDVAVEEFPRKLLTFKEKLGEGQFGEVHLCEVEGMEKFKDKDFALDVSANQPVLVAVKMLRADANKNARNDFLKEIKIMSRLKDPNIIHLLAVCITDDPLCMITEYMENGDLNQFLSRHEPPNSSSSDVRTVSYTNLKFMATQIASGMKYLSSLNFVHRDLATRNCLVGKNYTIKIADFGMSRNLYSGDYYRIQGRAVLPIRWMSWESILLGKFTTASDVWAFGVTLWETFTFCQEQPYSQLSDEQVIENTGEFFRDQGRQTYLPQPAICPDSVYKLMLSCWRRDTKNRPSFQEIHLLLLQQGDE

Sample 1 — organism: Toxoplasma gondii; effect on: parasite growth; tested at: concentration not given
CCc1nc(N)nc(N)c1-c1ccc(Cl)cc1: antiparasitic activity “active”.
Cc1nc2ccc(CN(C)c3ccc(C(=O)N[C@@H](CCC(=O)O)C(=O)O)s3)cc2c(=O)[nH]1 — result for antiparasitic activity: “active”.
CO[C@H]1O[C@@H]2O[C@@]3(C)CC[C@H]4[C@H](C)CC[C@@H]([C@H]1C)[C@@]24OO3 — result for antiparasitic activity: “active”.
CC[C@H]1OC(=O)[C@H](C)[C@@H](O[C@H]2C[C@@](C)(OC)[C@@H](O)[C@H](C)O2)[C@H](C)[C@@H](O[C@@H]2O[C@H](C)C[C@H](N(C)C)[C@H]2O)[C@](C)(O)C[C@@H](C)CN(C)[C@H](C)[C@@H](O)[C@]1(C)O — result for antiparasitic activity: “active”.
CC[C@H]1OC(=O)[C@H](C)[C@@H](O[C@H]2C[C@@](C)(OC)[C@@H](O)[C@H](C)O2)[C@H](C)[C@@H](O[C@@H]2O[C@H](C)C[C@H](N(C)C)[C@H]2O)[C@](C)(OC)C[C@@H](C)C(=O)[C@H](C)[C@@H](O)[C@]1(C)O: antiparasitic activity “active”.
Under antiparasitic activity, COc1cc(Cc2cnc(N)nc2N)cc(OC)c1OC is recorded as “active”.
Under antiparasitic activity, COc1c(N2CCNC(C)C2)c(F)cc2c(=O)c(C(=O)O)cn(C3CC3)c12 (centres unmarked) is recorded as “active”.
Under antiparasitic activity, COC(=O)Nc1nc2ccc(C(=O)c3ccccc3)cc2[nH]1 is recorded as “active”.

Sample 2 — cell line: MCF7; technique: microarray; tested at: concentration not given; baseline: DMSO
SMILES: CCCCCCCCNC(C)C(O)c1ccc(SC(C)C)cc1 (centres unmarked)
It gave 5.57 for “log2 fold change” (measured: TNFAIP3 mRNA).
It gave 4.96 for “log2 fold change” (measured: SLC7A11 mRNA).
measured: SQLE mRNA — “log2 fold change”: 2.16.
measured: SLC38A2 mRNA — “log2 fold change”: 1.19.
For measured: ZNF292 mRNA: “log2 fold change” read 1.21.
The “log2 fold change” was 1.49 (measured: TSC22D3 mRNA).
The “log2 fold change” was 0.54 (measured: TRAF5 mRNA).
It gave 1.05 for “log2 fold change” (measured: ZNHIT2 mRNA).
measured: UPP1 mRNA — “log2 fold change”: 1.21.
measured: TES mRNA — “log2 fold change”: 1.65.

Other studies, line by line
O=S(=O)(NC1CCC(c2cc(F)ccc2F)(S(=O)(=O)c2ccc(Cl)cc2)CC1)C(F)(F)F (centres unmarked) has an IC50 of less than 100 nM (gamma-secretase human; biochemical potency).
Cc1cc(C)c(-n2ccn3nc(-c4cccnc4)cc23)cc1NC(=O)c1cc(C#N)cc(S(F)(F)(F)(F)F)c1 gave an IC50 of 0.54 nM (Discoidin domain-containing receptor 2 (DDR2, Homo sapiens, UniProt Q16832); target binding, NanoBRET).
For Cn1c(C2(NC(=O)c3ccc(NCC4CCCCC4)nc3)CCC2)nc2ccc(/C=C/C(=O)O)cc21, the IC50 was greater than 5000 nM (HCV NS5B; biochemical).
CC(=O)N1CCC(c2ccc(C(=O)NC(=N)N)cc2C(F)(F)F)CC1 gave an IC50 of 6 nM (SLC9A1; biochemical activity).
With Cc1nc(NCc2cnccn2)ncc1C(=O)N1CCC2(CCOCC2)C1 the IC50 was 3000 nM (VNN1 (human); cellular activity).
